Published values of several laboratories.
Each numbered part is a random draw from the data of one study; scales do not carry over between parts.

Sample 1 — method: aptamer microarray, sandwich; molecule type: DNA with 2'F-ANA; medium: in vitro; concentration: 200 nM; added: Cy3 exosite-II aptamer, 400 nM; reading: higher = stronger binding; quantity: mean fluorescence intensity; strand: GGTTGGTGTGGTTGG
Target: Prothrombin, mature alpha-thrombin (F2, Homo sapiens, UniProt P00734)
Setting: whole 15-mer aptamer, many near background
2'F-ANA at 1 2 3 4 6 7 8 9 11 12 13 14 15: 77.9 a.u.
2'F-ANA at 1 5 7 8 12: 139 a.u.
2'F-ANA at 1 3 5 6 7 8 9 10 11 12 14: 47.9 a.u.
2'F-ANA at 1 2 3 4 7 8 9 12 15: 384 a.u.
2'F-ANA at 3 9 10 11 12 14 15: 357 a.u.
2'F-ANA at 1 2 5 6 7 8 9 13 14 15: 67.4 a.u.
2'F-ANA at 1 4 5 6 8 9 10 11 13 14: 58.9 a.u.
2'F-ANA at 3 4 5 7 8 10 12: 86.1 a.u.
2'F-ANA at 2 4 5 7 8 9 14 15: 50.6 a.u.
2'F-ANA at 2 5 6 7 11 12 13 15: 82.4 a.u.
2'F-ANA at 2 3 8 9 10 11 12: 399 a.u.
2'F-ANA at 1 2 4 6 7 9 10 11 12 15: 55.1 a.u.
2'F-ANA at 3 4 8 9 12 15: 1050 a.u.
2'F-ANA at 5 6 7 8 14: 48.3 a.u.
2'F-ANA at 3 5 6 9 10 15: 62.4 a.u.
2'F-ANA at 1 4 6 9 10 11 12 14 15: 49.3 a.u.
2'F-ANA at 1 3 7 8 9 11 12 13 14: 124 a.u.
2'F-ANA at 1 2 4 5 6 7 9 12 13 14: 50.6 a.u.
2'F-ANA at 8 9 12: 940 a.u.
2'F-ANA at 1 3 4 9 15: 189 a.u.
2'F-ANA at 2 6 10 12 13 14: 86.6 a.u.
2'F-ANA at 1 2 3 5 7 10 11 12: 63.2 a.u.
2'F-ANA at 1 2 4 5 6 7 10 11 12 14: 46.9 a.u.
2'F-ANA at 1 3 5 6 7 8 14 15: 48 a.u.
2'F-ANA at 2 4 5 8 9 10 12 14 15: 41.8 a.u.

Sample 2 — method: protein binding microarray; molecule type: double-stranded DNA, one strand shown; medium: in vitro; concentration: not given; reference: not given; reading: higher = stronger binding; quantity: E-score
Target: Histone acetyltransferase KAT6A, winged helix 2, GST fusion (KAT6A, Homo sapiens, UniProt Q92794, residues 85-181)
Setting: 8-mer, flanks averaged, mean of 2 arrays, mostly near background
Target sequence (chain): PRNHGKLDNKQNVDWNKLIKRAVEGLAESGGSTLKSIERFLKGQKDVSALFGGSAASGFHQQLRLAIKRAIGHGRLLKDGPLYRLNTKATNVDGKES
ATCACGTG: -0.125
AATTGGCC: -0.063
CCTTTAAC: 0.0698
CAGATCAC: -0.0297
AAAGAGCG: -0.0991
CAGCTACC: -0.0754
AACCCGTA: -0.24
AACTTCTG: -0.00741
ATCCCAAT: -0.0486
ACTCGTGC: -0.149
CCTGAAAC: 0.0984
AAAGATAG: -0.0898
ACCCTGCG: 0.193
ATTACCTG: -0.223
GACCTTCA: -0.0814
AATGGCCT: -0.0312

Sample 3 — method: RNA Bind-n-Seq; molecule type: RNA; medium: in vitro; concentration: not given; reference: input RNA pool; reading: higher = stronger binding; quantity: bound/input enrichment
Target: RING finger protein unkempt homolog, zinc fingers 1-6, GST-SBP tag (UNK, Homo sapiens, UniProt Q9C0B0, residues 30-357)
Chain of UniProt Q9C0B0 (30-357, looked up): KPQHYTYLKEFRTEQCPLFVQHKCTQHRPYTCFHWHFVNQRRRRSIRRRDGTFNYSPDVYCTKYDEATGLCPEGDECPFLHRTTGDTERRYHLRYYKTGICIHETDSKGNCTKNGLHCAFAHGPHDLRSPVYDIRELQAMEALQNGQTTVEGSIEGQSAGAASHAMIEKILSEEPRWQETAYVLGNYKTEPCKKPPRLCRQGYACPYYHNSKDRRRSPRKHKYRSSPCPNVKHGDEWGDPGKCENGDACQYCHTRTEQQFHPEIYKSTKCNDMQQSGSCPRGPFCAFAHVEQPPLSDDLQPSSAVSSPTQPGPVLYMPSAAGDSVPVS
Setting: RNA with constant flanks, human-mouse chimeric sites, ends assumed
Constant ends, left off below: GGGAGUUCUACAGUCCGACGAUC … CAACAGAGGAUUGAGCAUCA
GCUCUUGGGAAUGUAAUAAGUGCCUUGGGGGACAAGAGCAAGAGAGCCACCCAUGUCCCUUACAGAGACUCUAAGCUGACAAGACUCUUGCAGGAUUCCCUUGGGGGUAACAGCCAAACC: 0.157 ratio
CUGGCCUGGCCCUCCCCAGGGGCCUCCUUUCGUAUAGUCACUGCUUCUGCAUCAGAUACUUUCAGCUGCAACUCCCUACUGGGUGGGGCACCUAUCUCAGGCAGAAGGUUUUGGUACCCU: 0.248 ratio
UAAAUUAGGGCUGCCGUCCGUUCUCACUCCCUGGGCUGCGGAAAGCCAGGCGGUUUUAUCUAGCUUAUACAAGGCUGCUGGUGUUCCCUCUUUUUUUCCACGAGGGUGUUUUUGGCUGCA: 1.9 ratio
AUCAAGUACUUUGGGGACAUCAUUAGUGUGGGACAGAGACUGUUGCAAGGGGCCCGGAUCUUAGGGAUUCCAGUUAUCAUAACGGAACAAUACCCCAAAGGACUUGGCAGCACCGUUCAA: 0.21 ratio
UUCAAAGGCUGUGUUAUCUGUGUCAUUUCAUAAGUAACUCUGGGGGAUAAGUGGAAGGUUCUUUUGUUUAAUUUUCCCCCAAAUGAAGCCAAAGUGUGUGUUGAAGAACUGAGAAAAAAU: 0.165 ratio
GAUAAGAAAAGCUUGUUGGAGACCCGCUUGCAUGUCACUGGCAGAGACCUGAGGUGUCAAAUAGCUGAAACUUUCGGAUUUCAAGAAAAUUACAUCAAGAUCGUAAUAAAUAAGAAACAG: 0.282 ratio
AGAGAUAAGACAUCCAGGAACAUGCGAGGGUCACGGAUGAAUGGGUUGCCUAGCCCCACUCACAGCGCCCACUGUAGCUUCUACAGAACCAGAACCUUGCAGGCACUGAGUAAUGAGAAG: 0.246 ratio
AUGGAACAUUUCGAUGCGUCACUCAGUACCUAUUUCAAGGCCUUCCUGGGCCCCCGAGAUACAAGAGUAAAAGGAUGGUUUCUUCUGGACAAUUACAUCCCUACGUUUGUCUGUUCUGUU: 0.104 ratio
GUUGCCAGGUUCCGGUGCCGUUGGGCUCGGUUCUCUCCUGAGCUACGUGUCUCUACGCUCUCAAUCCGCCAUCCAACAAACAUGGAUCAGGUAAUGCUGCAGUUUGUGCCCAGCCGGCAG: 0.136 ratio
AUAGAUGAAAUUGAUGUAGAUCAGGAAGGAAUUGCAGAAAUGAUCCUGGAUGAAAAUGCUAUUGCUCAGGUCCCACGCCCUGGCACAUCUUUGAAGCUCCCUGGCACUAACCAAACAGGA: 0.339 ratio
CAGGGCAUCAUCUCUCGUGCUGUUAGACACCUGUUCAAGAGUAUUGAUGAGAAAAAGACCUCAGCGAUUAAAAAUGGGCUUCCUGCUCCUGAAUUCAAAGUGAAUGCCCAGUUCCUAGAG: 0.218 ratio

Sample 4 — method: RNA Bind-n-Seq; molecule type: RNA; medium: in vitro; concentration: 365 nM; reference: no-protein control; reading: higher = stronger binding; quantity: RBNS enrichment (R)
Target: RNA binding protein fox-1 homolog 2, RRM domain, GST-SBP tag (RBFOX2, Homo sapiens, UniProt O43251-10, residues 100-194)
Setting: natural RNA segment, single round, ends assumed
Constant ends, left off below: GGGAGUUCUACAGUCCGACGAUC … UGGAAUUCUCGGGUGCCAA
Construct (chain): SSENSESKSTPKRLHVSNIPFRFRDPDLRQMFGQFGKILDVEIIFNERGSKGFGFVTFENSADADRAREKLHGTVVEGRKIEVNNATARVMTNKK
GAUGUCUCCUCAAGCCUGUGGGCAGCAUGCCCAGAUUCCCAGACUAAGACACUGUGACAGUUGUCUGUCGGUCCACUGUGUUUAGUUGCAAAGAUUUCACCAUGUGUGUU: 1.9
GAGGUUGACCGGUAGACUGAAGAGGCCUUGAGAGCCUGGCCAGGUGGCUGUCCACGUGAGGUCAUAGUCACAGCAUGGAGGCCUUGAGAGCCUGGCCAGGUGGCCCUCCA: 0.478
GUUAGACAUUAACAAACAGCAGGAAAAUGUCACAUAACCUGGAAAGACCGCACUGGAGUUGGGUGUGUUCUGAGUUUCUGUCCAGAUGUGAUUUCAGCAGUCAUGGUAUU: 0.84
UGCCCUAUUUGUAGUCUCCACCUCUCUGCACAGCUCCUUCUGGGUGGUCCUCAGCAGGGUUUUGACCUUGAUUGGCGGCUACUCUGGCAACCACUGCCCAUUCUUCUAAU: 0.378
AAACUGUUGUCCUCCUGCUAAACACUGUCUGUUAAGGGACUCAGUCAUAUAUGCUUAUUGUUUUGUUCCAUGUGAUUCUUGUUUCCCUAUGCUCUUUAAUGGAGAAUCUG: 2.94
AAGGCAGUUUAGAGAAUGAAGUAAACCAAUAGAUACUCUUUUGAUUCUCCAAAGAAAUAUAAUUUUGGUUUUUGUUCCUCAGAGAGAGUUUGAAAGAAAUUUUCAGAUGU: 0.613
UGAAGUUUGUUACGUGUAAGGGAAGCUGAAGUUCUUGUAUCUUUAAAGAGGAAAUCUUAUUUAACCCUUUGUGUCCUAGAUUGACUUACACACAUAGCCUAGAGCUCAGU: 0.353
CUUCCCUCUGAGCUGCUCAGAGAGGGUAGCUAGCCCAAUGAUGUGGCCCGUGGACAGGAUAAGCAGAUGCACCUGUGACUGACUGGAGGCGUGUUGCUGUGUAUCCCGGG: 0.69
AAGGGAGGUGAAAAUACCUACCUCACAGAACUGUUGGCUCAGAUGAGACGCUGUAUGUGUAAACAUCCUGUAAACUUCGUACAAAUGUGAAGUAUUAUUAAUAUUGCUAC: 0.529
AUGACUCUCUGCUAUUCAUGAAUCUUGCUAUUGCACAAACCCUAUCAAGAGCUGCUGCUUCCCUUCCAGCCAGAAAAGUGGUAAGCGGAGCAAGUGCCAAGCAGAACAGA: 0.557
UUAAAUGACACUCUUCCUUUAGAAUAUAACGGAUCAGUACUCAUGUUUAAUUGCCAUGCUUAAUAAAUCAUGAGAACAAAAGAGUAUAGAAUGGAAAGCAUUCCCUGGUA: 0.559
CUGCAACAGGAAGCAGGAAGGUUGCUCGCCCUGUUUCCAGAGAUUGCAAUAAAGCAGUGUGAGGGGAGCACGGGCCCCGUGUAUUUGUCGAGAGGAUGAAGGAAGGUUGC: 1.88

Excerpt of the above (sample 4):
UGCCCUAUUUGUAGUCUCCACCUCUCUGCACAGCUCCUUCUGGGUGGUCCUCAGCAGGGUUUUGACCUUGAUUGGCGGCUACUCUGGCAACCACUGCCCAUUCUUCUAAU: 0.378
AAACUGUUGUCCUCCUGCUAAACACUGUCUGUUAAGGGACUCAGUCAUAUAUGCUUAUUGUUUUGUUCCAUGUGAUUCUUGUUUCCCUAUGCUCUUUAAUGGAGAAUCUG: 2.94
AAGGCAGUUUAGAGAAUGAAGUAAACCAAUAGAUACUCUUUUGAUUCUCCAAAGAAAUAUAAUUUUGGUUUUUGUUCCUCAGAGAGAGUUUGAAAGAAAUUUUCAGAUGU: 0.613
UGAAGUUUGUUACGUGUAAGGGAAGCUGAAGUUCUUGUAUCUUUAAAGAGGAAAUCUUAUUUAACCCUUUGUGUCCUAGAUUGACUUACACACAUAGCCUAGAGCUCAGU: 0.353
CUUCCCUCUGAGCUGCUCAGAGAGGGUAGCUAGCCCAAUGAUGUGGCCCGUGGACAGGAUAAGCAGAUGCACCUGUGACUGACUGGAGGCGUGUUGCUGUGUAUCCCGGG: 0.69
AAGGGAGGUGAAAAUACCUACCUCACAGAACUGUUGGCUCAGAUGAGACGCUGUAUGUGUAAACAUCCUGUAAACUUCGUACAAAUGUGAAGUAUUAUUAAUAUUGCUAC: 0.529
